Measured values pooled from the literature.
Each line is one published result; not all experiments were run side by side. Values joined by “and” are separate records of one study, mostly repeats; a detail may differ. Numbers after ± are the reported error.
nanA: Sialidase A (nanA, Streptococcus pneumoniae, UniProt P62575)
Tripartite terminase subunit 3 C-terminal nuclease domain: Tripartite terminase subunit 3, C-terminal nuclease domain (Human betaherpesvirus 5, UniProt P16732)
UniProt P16732, sequence (whole entry, looked up): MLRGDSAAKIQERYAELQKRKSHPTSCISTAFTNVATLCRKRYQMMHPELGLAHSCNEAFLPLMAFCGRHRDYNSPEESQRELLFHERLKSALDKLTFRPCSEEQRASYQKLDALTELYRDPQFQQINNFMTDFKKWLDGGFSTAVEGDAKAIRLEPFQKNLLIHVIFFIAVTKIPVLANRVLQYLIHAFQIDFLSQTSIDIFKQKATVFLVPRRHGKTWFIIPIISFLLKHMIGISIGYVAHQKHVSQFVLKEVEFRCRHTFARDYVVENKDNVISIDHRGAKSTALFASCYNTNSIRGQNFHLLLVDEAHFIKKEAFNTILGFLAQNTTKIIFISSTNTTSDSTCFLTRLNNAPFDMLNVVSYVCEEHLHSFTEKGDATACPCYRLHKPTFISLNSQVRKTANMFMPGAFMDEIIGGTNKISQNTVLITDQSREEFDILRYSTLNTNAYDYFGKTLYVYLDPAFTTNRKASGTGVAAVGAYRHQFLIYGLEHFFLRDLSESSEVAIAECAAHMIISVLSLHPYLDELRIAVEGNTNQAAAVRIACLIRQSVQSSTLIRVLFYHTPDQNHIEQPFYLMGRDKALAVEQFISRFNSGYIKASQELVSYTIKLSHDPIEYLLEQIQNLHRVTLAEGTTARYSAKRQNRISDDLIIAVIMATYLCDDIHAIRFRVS
APP: Amyloid-beta precursor protein (APP, Homo sapiens, UniProt P05067)
UniProt P05067, sequence (whole entry, looked up): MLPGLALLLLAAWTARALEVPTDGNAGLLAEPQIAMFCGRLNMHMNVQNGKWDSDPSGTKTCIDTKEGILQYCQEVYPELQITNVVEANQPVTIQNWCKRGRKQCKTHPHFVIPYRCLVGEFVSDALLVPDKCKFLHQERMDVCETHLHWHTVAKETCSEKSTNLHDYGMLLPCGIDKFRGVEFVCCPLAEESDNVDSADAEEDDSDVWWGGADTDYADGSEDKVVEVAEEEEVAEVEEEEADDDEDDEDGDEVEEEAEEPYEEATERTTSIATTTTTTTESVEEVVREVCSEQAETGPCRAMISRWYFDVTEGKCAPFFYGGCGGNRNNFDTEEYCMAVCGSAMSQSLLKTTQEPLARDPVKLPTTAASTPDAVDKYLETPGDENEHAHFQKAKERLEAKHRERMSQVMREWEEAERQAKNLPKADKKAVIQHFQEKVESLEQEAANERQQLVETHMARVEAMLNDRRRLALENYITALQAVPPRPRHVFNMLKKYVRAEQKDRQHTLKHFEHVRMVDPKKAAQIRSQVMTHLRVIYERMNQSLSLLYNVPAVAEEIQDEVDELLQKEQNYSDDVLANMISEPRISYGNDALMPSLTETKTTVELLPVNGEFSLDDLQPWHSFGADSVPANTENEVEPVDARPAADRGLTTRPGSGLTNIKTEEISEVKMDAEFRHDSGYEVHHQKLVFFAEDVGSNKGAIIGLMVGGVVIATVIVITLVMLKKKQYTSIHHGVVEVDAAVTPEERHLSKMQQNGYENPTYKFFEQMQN
MAPK14: Mitogen-activated protein kinase 14 (MAPK14, Homo sapiens, UniProt Q16539)
UniProt P06935, sequence (whole entry, looked up): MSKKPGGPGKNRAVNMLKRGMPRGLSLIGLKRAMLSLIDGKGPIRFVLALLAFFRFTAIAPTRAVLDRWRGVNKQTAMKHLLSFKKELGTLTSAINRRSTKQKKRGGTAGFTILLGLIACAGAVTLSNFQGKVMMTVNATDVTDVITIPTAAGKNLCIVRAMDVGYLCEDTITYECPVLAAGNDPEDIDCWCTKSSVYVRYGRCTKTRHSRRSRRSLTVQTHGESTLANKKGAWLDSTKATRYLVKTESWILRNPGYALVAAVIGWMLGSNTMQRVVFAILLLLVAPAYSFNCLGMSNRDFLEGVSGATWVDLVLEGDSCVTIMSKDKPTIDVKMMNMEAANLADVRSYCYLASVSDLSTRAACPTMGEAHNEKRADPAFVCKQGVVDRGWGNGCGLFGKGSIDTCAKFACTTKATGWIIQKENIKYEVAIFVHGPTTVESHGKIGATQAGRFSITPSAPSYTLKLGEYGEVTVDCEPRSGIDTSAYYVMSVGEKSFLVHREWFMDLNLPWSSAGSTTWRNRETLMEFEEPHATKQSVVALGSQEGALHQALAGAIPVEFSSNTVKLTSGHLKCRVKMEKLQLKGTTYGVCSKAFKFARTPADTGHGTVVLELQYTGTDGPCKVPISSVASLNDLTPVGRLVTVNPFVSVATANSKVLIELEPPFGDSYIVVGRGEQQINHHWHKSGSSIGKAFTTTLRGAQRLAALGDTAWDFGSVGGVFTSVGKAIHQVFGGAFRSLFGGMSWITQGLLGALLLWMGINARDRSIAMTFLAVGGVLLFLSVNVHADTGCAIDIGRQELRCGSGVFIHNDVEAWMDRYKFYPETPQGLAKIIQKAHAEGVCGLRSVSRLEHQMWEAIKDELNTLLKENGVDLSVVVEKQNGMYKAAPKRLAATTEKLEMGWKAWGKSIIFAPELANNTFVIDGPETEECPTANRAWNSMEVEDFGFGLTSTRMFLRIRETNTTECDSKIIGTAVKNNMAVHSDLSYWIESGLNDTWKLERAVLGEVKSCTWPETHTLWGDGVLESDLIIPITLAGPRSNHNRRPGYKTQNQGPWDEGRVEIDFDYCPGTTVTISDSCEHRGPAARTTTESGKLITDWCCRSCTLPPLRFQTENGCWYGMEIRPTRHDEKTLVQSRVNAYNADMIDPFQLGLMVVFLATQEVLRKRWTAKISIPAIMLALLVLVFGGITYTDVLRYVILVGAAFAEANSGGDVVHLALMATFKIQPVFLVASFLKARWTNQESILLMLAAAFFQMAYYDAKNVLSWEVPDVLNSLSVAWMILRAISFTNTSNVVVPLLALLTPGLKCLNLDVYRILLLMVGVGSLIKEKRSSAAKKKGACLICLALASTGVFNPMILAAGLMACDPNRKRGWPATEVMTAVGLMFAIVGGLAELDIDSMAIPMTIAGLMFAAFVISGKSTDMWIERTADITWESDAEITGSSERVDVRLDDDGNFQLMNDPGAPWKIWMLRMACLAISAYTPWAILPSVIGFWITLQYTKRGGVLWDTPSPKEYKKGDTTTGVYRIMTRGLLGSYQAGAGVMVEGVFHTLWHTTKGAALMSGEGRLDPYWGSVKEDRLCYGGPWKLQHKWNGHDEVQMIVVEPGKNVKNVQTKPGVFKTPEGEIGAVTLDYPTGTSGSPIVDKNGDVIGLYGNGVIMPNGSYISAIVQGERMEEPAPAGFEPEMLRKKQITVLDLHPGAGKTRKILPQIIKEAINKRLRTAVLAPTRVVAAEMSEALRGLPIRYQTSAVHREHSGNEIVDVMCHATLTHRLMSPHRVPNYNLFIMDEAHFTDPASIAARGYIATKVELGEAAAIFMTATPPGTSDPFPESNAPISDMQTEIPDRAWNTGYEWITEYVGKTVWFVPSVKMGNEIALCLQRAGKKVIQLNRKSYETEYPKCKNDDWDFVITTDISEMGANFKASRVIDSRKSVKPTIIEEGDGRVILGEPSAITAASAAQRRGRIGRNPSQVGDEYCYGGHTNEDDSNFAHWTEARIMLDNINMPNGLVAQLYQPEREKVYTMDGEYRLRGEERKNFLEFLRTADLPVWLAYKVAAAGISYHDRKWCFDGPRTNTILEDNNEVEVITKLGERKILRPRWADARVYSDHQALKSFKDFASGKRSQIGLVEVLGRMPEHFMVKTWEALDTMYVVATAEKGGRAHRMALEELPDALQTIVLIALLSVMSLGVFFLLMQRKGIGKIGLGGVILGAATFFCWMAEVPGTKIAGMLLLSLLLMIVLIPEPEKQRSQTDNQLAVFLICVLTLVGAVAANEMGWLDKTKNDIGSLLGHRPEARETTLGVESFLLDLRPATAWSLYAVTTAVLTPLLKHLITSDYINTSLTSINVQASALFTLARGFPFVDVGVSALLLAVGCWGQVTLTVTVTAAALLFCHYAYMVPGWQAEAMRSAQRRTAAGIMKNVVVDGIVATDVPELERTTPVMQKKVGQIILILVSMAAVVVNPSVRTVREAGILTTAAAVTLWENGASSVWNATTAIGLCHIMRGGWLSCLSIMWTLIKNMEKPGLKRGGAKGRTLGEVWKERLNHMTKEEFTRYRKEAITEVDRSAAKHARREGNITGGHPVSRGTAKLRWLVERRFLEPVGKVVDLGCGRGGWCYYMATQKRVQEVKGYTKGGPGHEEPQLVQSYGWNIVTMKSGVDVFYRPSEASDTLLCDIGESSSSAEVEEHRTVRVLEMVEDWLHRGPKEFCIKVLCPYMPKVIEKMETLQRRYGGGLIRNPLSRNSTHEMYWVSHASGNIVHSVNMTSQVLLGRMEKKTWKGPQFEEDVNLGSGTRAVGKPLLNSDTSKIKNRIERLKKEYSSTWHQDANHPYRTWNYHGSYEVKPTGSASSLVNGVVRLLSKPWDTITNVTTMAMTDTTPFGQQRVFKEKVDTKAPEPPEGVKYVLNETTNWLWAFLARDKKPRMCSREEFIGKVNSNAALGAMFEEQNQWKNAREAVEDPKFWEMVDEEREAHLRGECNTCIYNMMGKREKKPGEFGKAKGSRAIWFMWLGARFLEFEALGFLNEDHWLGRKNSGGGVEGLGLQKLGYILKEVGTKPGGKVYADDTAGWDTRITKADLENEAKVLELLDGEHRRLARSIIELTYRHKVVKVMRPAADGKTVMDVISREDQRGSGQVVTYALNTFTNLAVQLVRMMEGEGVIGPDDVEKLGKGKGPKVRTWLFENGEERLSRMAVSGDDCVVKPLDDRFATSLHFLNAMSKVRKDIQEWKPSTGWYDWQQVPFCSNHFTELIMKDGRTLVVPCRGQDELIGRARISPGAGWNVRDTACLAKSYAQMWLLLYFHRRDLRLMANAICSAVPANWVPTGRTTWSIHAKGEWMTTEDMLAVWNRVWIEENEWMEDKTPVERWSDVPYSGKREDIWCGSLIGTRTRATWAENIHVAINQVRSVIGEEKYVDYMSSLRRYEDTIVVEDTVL

For Nc1ccncc1, the inhibition was 13% (Glutamate receptor 2 (Homo sapiens, UniProt P42262); ion current, negative allosteric modulator, automated patch clamp; HEK293; 10 µM).
COc1cc([C@@H]2c3cc4c(cc3[C@@H](O[C@@H]3O[C@@H]5CO[C@@H](c6cccs6)O[C@H]5[C@H](O)[C@H]3O)[C@H]3COC(=O)[C@H]23)OCO4)cc(OC)c1O has a maximum inhibition of 2.59% (human coronavirus OC43; virus-induced cell killing; MRC-5; screen).
With CC(=O)N[C@H]1[C@H]([C@H](O)[C@H](O)CO)OC(C(=O)O)=C[C@@H]1NC(C)=O the inhibition was 0.5 ± 6.5% (nanA; 8 µM, pH 6).
For C[C@H](C(=O)N[C@H]1COc2ccccc2[C@@H]1S(C)(=O)=O)c1ccc(F)cc1, the inhibition was -10% (Disintegrin and metalloproteinase domain-containing protein 17 (ADAM17, Homo sapiens, UniProt P78536); enzyme activity; 10 µM, Eurofins selectivity panel).
N#Cc1ccc(CNc2ccc3c(c2)B(O)OC3)cc1 gave an inhibition of 22 ± 4% (Genome polyprotein, NS2B-NS3 protease (dengue virus type 2, UniProt P29990); enzyme activity, FRET; dengue virus serotype 2; 50 µM, with: substrate 50 µM).
O=C(Nc1cccnn1)N1CCC(=Cc2cccc(Oc3ccc(C(F)(F)F)cn3)c2)CC1 has an inhibition of 15% (Retinoic acid receptor RXR-alpha (RXRA, Homo sapiens, UniProt P19793); radioligand binding, inhibitor; 10 µM, human, with: [3H]9-cis-retinoic acid).
With O=C(Nc1ccc2c(c1)B(O)OC2)OCc1ccccc1 the inhibition was at most 10% (Genome polyprotein, NS2B-NS3 protease (West Nile virus, UniProt P06935); enzyme activity, FRET; 50 µM, with: substrate 50 µM).
CN(C(=O)n1cnc(-c2ccc[n+]([O-])c2)c1)C1CCCCC1 gave an inhibition of 12% (Adenosine receptor A1 (ADORA1, Homo sapiens, UniProt P30542); radioligand binding; 50 µM, with: [3H]DPCPX).
With COc1ccc(N2C(=O)N(c3c(C)cccc3Cl)Cc3cnc(Nc4ccc(C5CCN(C)CC5)cc4OC)nc32)nc1 the inhibition was 5% (Serine/threonine-protein kinase LATS1 (LATS1, Homo sapiens, UniProt O95835); kinase activity; 0.5 µM).
CCOc1ccc(NC(=O)c2cnn(-c3ccc(C)c(Cl)c3)c2C2CCNCC2)cc1 has a cytotoxicity efficacy of 0% (Vero-E6; CellTiter-Glo ATP; concentration not given, 72 h, first round 5-point; reference: DMSO 0%, hyamine -100%, more negative, more toxic).
For O=c1[nH]c2c3c(sc2c(=O)n1O)CCC3, the inhibition was 82% (Tripartite terminase subunit 3 C-terminal nuclease domain; endonuclease activity, ELISA; 20 µM, with: dsDNA).
The inhibition of CN1CCN(c2cc(-c3ccncc3)c(-c3ccc4ccccc4c3)nn2)CC1 is reported as 7.1% (P2Y purinoceptor 11 (P2RY11, Homo sapiens, UniProt Q96G91); antagonist, FLIPR; 10 µM).
CN(Cc1cnc2nc(N)nc(N)c2n1)c1ccc(C(=O)N[C@@H](CCC(=O)O)C(=O)O)cc1 has a maximum inhibition of 18.5% (human coronavirus OC43; virus-induced cell killing; MRC-5; screen).
For Cc1ccc(S(=O)(=O)Oc2ccc3c(c2)Oc2nc4c(c(N)c2C3c2ccc(Cl)c(Cl)c2)CCCC4)cc1 (centres unmarked), the inhibition was 14% (APP; Aβ42 self-aggregation, inhibitor, thioflavin T fluorescence; 1 µM).
For O=C(Nc1ccc2c(c1)B(O)OC2)c1cccc(OCc2ccccc2)n1, the inhibition was 24 ± 2% (Genome polyprotein, NS2B-NS3 protease (West Nile virus, UniProt P06935); enzyme activity, FRET; 50 µM, with: substrate 50 µM).
For Nc1ncnc2c1ncn2[C@@H]1O[C@H](C[C@@H](N)CC[C@H](N)C(=O)O)[C@@H](O)[C@H]1O, the inhibition was 67.7% (Genome polyprotein, NS5 methyltransferase domain (Zika virus, UniProt Q32ZE1); NS5 enzyme activity, inhibitor; 6.25 µM).
O=c1[nH]c2sc(-c3ccccc3)cc2c(=O)n1O gave an inhibition of 85% (Tripartite terminase subunit 3 C-terminal nuclease domain; endonuclease activity, ELISA; 20 µM, with: dsDNA).
Under inhibition, COC(=O)C1=CCCN(C)C1 is recorded as “inhibited” (Acetyl-CoA acetyltransferase, mitochondrial (Homo sapiens, UniProt P24752); enzyme activity; human primary leukaemia cells; concentration not given, 72 h).
With CC(=O)N[C@H]1[C@H]([C@H](O)[C@H](O)CO)OC(O[C@H]2[C@@H](O)[C@@H](CO)O[C@@H](Oc3ccc([N+](=O)[O-])cc3)[C@@H]2O)(C(=O)O)C[C@@H]1O (some centres unmarked) the inhibition was 17.1 ± 6.1% (nanA; 8 µM, pH 6).
For FC(F)(F)c1cccc(Nc2nc(NCCOc3ccccc3)nc3[nH]cnc23)c1, the inhibition was 2% and 5% (MAPK14; Z′-LYTE kinase; 5 µM).
The inhibition of Nc1ccc(C(=O)Nc2ccc3c(c2)B(O)OC3)cc1 is reported as 20 ± 5% (Genome polyprotein, NS2B-NS3 protease (dengue virus type 2, UniProt P29990); enzyme activity, FRET; dengue virus serotype 2; 50 µM, with: substrate 50 µM).
Cn1cccc1-c1cccnc1 gave an inhibition of -11.6% (Muscarinic acetylcholine receptor M5 (CHRM5, Homo sapiens, UniProt P08912); binding; 50 µM).
O=[N+]([O-])c1ccc2c(c1)B(O)OC2 gave an inhibition of at most 10% (Genome polyprotein, NS2B-NS3 protease (West Nile virus, UniProt P06935); enzyme activity, FRET; 50 µM, with: substrate 50 µM).
For Nc1c2c(nc3c1C(c1ccc(Cl)c(Cl)c1)c1ccc(OCC(=O)c4ccc(Cl)cc4)cc1O3)CCCC2 (centres unmarked), the inhibition was 33% (APP; Aβ42 self-aggregation, inhibitor, thioflavin T fluorescence; 0.1 µM).
For O=C(CCc1ccc(CC2CCN(Cc3c[nH]c4ccccc34)CC2)cc1)N1CCCC1, the maximum response was -11.7% (Vero-E6; CellTiter-Glo ATP; 72 h, second round 5-point; reference: DMSO 0%, hyamine -100%, more negative, more toxic).
O=C(O[C@@H]1Cc2c(O)cc(O)cc2O[C@@H]1c1cc(O)c(=O)c2c(O)c(O)cc([C@H]3Oc4cc(O)cc(O)c4C[C@H]3OC(=O)c3cc(O)c(O)c(O)c3)c2c1)c1cc(O)c(O)c(O)c1 — result for inhibition: “inhibited” (Protein disulfide-isomerase A6 (PDIA6, Homo sapiens, UniProt Q15084); di-eosin-GSSG reductase activity; 20 µM, 15 min).
With COc1cc(Nc2ncc(F)c(Nc3ccc4c(n3)NC(=O)C(C)(C)O4)n2)cc(OC)c1OC the inhibition was 100% (Casein kinase II subunit alpha (CSNK2A1, Homo sapiens, UniProt P68400); KINOMEscan; 10 µM).
For O=c1[nH]c2ccsc2c(=O)n1O, the inhibition was 89% (Tripartite terminase subunit 3 C-terminal nuclease domain; endonuclease activity, ELISA; 20 µM, with: dsDNA).
The inhibition of N=C(N)Nc1ccc(C(=O)Nc2ccc3c(c2)B(O)OC3)cc1 is reported as 56 ± 1% (Genome polyprotein, NS2B-NS3 protease (West Nile virus, UniProt P06935); enzyme activity, FRET; 50 µM, with: substrate 50 µM).
The inhibition of O=C1CN=C(c2ccccc2)c2cc(/N=N/c3ccc(S(=O)(=O)O)cc3)ccc2N1 is reported as 75 ± 3% (5-hydroxytryptamine receptor 3A (HTR3A, Homo sapiens, UniProt P46098); 5-HT-induced current, inhibitor, whole-cell patch clamp; CHO cells; 50 µM, UV light, holding -30 mV, with: 5-HT).
With O=c1[nH]c2sc(-c3ccc(F)cc3)cc2c(=O)n1O the inhibition was 100% (Tripartite terminase subunit 3 C-terminal nuclease domain; endonuclease activity, ELISA; 20 µM, with: dsDNA).
O=C(Nc1cnccc1Cl)N1CCN(Cc2ccc3c(c2)OC(F)(F)O3)CC1 gave an inhibition of 30% (dopamine D4.2 receptor, human; binding; 50 µM, with: [3H]spiperone).
With Nc1c2c(nc3c1C(c1cccc([N+](=O)[O-])c1)c1ccc(OCC(=O)c4ccc(Cl)cc4)cc1O3)CCCC2 (centres unmarked) the inhibition was 36% (APP; Aβ42 self-aggregation, inhibitor, thioflavin T fluorescence; 1 µM).
Cn1cc(-c2cccc(N3CCc4c(sc5c4CC(C)(C)C5)C3=O)c2CO)cc(Nc2ccncn2)c1=O has an inhibition of 3% (MAPK14; kinase activity, inhibitor, SelectScreen; 1 µM, with: ATP).
O=C(Nc1ccc2c(c1)B(O)OC2)c1cccc(OCC2CCCCC2)c1 gave an inhibition of 18 ± 2% (Genome polyprotein, NS2B-NS3 protease (dengue virus type 2, UniProt P29990); enzyme activity, FRET; dengue virus serotype 2; 50 µM, with: substrate 50 µM).

For quick reference, copied from above:
O=C(O[C@@H]1Cc2c(O)cc(O)cc2O[C@@H]1c1cc(O)c(=O)c2c(O)c(O)cc([C@H]3Oc4cc(O)cc(O)c4C[C@H]3OC(=O)c3cc(O)c(O)c(O)c3)c2c1)c1cc(O)c(O)c(O)c1 — result for inhibition: “inhibited” (Protein disulfide-isomerase A6 (PDIA6, Homo sapiens, UniProt Q15084); di-eosin-GSSG reductase activity; 20 µM, 15 min).
With COc1cc(Nc2ncc(F)c(Nc3ccc4c(n3)NC(=O)C(C)(C)O4)n2)cc(OC)c1OC the inhibition was 100% (Casein kinase II subunit alpha (CSNK2A1, Homo sapiens, UniProt P68400); KINOMEscan; 10 µM).
